# Measured values collected from several papers.
# ± marks the error that the study gave.
SMILES,test,test system,setting,scale,remaining compound [%]
Cc1cc(O)cc(C)c1C[C@H](N)C(=O)N[C@H](C)C(=O)NCC(=O)N(C)[C@@H](Cc1ccccc1)C(=O)N1CCC[C@H]1C(=O)N[C@@H](CC(C)C)C(=O)N[C@@H](Cc1c[nH]c2ccccc12)C(=O)NCc1cc(C(F)(F)F)cc(C(F)(F)F)c1,,rat plasma,"0 h, 37 °C",,100
NC(=O)c1c(F)ccc(OCc2nc3cc(Cl)cnc3s2)c1F,,human plasma,"10 µM, 24 h, 37 °C",,100 ± 5.2
C[C@H](CCC(=O)N[C@@H](CCCCNC(=O)C(F)(F)F)C(=O)O)[C@H]1CC[C@H]2[C@@H]3[C@H](O)C[C@@H]4C[C@H](O)CC[C@]4(C)[C@H]3C[C@H](O)[C@]12C,,hASBT-MDCK cell homogenate,"5 µM, 10 min",,102
CC(=O)c1ncn2c(=O)n(C)nnc12,,PBS,"50 µM, 2 h, pH 7.4, no microsomes",baseline: time zero,77 ± 3
CC(C)[C@@H]1NC(=O)CNC(=O)[C@H](CC(N)=O)NC(=O)[C@H](CCCNC(=N)N)NC(=O)[C@H](Cc2ccc(O)cc2)NC(=O)[C@H](C(C)C)NC(=O)[C@@H](NC(=O)[C@@H](NC(=O)[C@H](CC(N)=O)NC(=O)[C@H](Cc2c[nH]c3ccccc23)NC(=O)[C@H](C)NC(=O)[C@H](Cc2ccccc2)NC(=O)CNC(=O)[C@H](CCCCN)NC(=O)[C@H](Cc2ccccc2)NC(=O)[C@H](Cc2ccccc2)NC(=O)[C@H](CCCCN)NC(=O)OCC2c3ccccc3-c3ccccc32)C(C)C)CSSC[C@@H](C(=O)N[C@@H](Cc2c[nH]cn2)C(=O)N[C@@H](CCCNC(=N)N)C(=O)N[C@@H](CCCNC(=N)N)C(=O)N[C@@H](C)C(=O)N[C@@H](CC(N)=O)C(N)=O)NC(=O)[C@H](C(C)C)NC(=O)[C@H](CCCNC(=N)N)NC1=O,HPLC,mouse liver homogenate,"concentration not given, 8 h",,37.7
CSCC[C@H](NC(=O)CNC(=O)[C@H](CC(=O)O)NC(=O)[C@@H](NC(=O)[C@@H](NC(=O)[C@@H](NC(=O)CNC(=O)[C@H](CCC(=O)O)NC(=O)[C@H](CCSC)NC(=O)[C@H](CC(=O)O)NC(=O)[C@H](C)NC(=O)[C@H](C)NC(=O)[C@@H](NC(=O)[C@H](CO)NC(=O)[C@@H](N)CC(C)C)[C@@H](C)O)C(C)C)C(C)C)[C@@H](C)O)C(=O)N[C@@H](C)C(=O)N[C@@H](CO)C(=O)NCC(=O)N[C@@H](CC(C)C)C(=O)N[C@@H](CC(=O)O)C(=O)N[C@@H](CCCCN)C(=O)N[C@@H](CC(=O)O)C(=O)N[C@@H](Cc1ccc(O)cc1)C(=O)N[C@@H](CC(C)C)C(=O)N[C@@H](CCCCN)C(=O)N1CCC[C@H]1C(=O)N[C@@H](CC(=O)O)C(=O)N[C@@H](CC(=O)O)C(=O)O,LC-MS/MS,monkey serum,"10 µg/mL, 24 h, 37 °C",,45
CNC(=O)c1ncn2c(=O)n(C)nnc12,,PBS,"50 µM, 2 h, pH 7.4, no microsomes",baseline: time zero,93 ± 1
CC[C@@H](C)[C@@H]1NC(=O)[C@@H](Cc2ccccc2)NC(=O)[C@@H]2CCCN2C(=O)[C@H]([C@H](C)CC)NC(=O)[C@@H](Cc2ccccc2)NC(=O)[C@@H]2CCCN2C1=O,,human plasma,"2 h, 37 °C",,≥ 90
N.N.O=C([O][Pt]([OH])([Cl])[Cl])c1ccc(P(c2ccccc2)c2ccccc2)cc1.[Cl][Au],NMR,DMSO-d6,28 days,,> 98
Cc1cc(O)cc(C)c1C[C@H](NC(=O)[C@H](N)CCCNC(=N)N)C(=O)N[C@@H](CCCCN)C(=O)N[C@@H](Cc1ccccc1)C(N)=O,,mouse plasma,"10 µg/mL, 24 h, 37 °C, added: H2O2 100 mM",,81.1 ± 3.6
CC[C@H](C)[C@@H]1NC(=O)[C@H](CC(N)=O)NC(=O)[C@@H]2CCCN2C(=O)[C@@H](NC(=O)[C@H](CC(N)=O)NC(=O)[C@@H](N)CCC(N)=O)COC(=O)[C@H](CCSC)NC(=O)[C@H](Cc2c[nH]c3ccccc23)NC(=O)[C@H](CCC(N)=O)NC(=O)CNC(=O)[C@H](Cc2ccccc2)N(C)C1=O,,human plasma diluted with PBS,"0.28 mM, 30 min, pH 7.2, 37 °C",,~30
CCc1noc(CC)c1C(=O)O[C@H]1C(C)=C[C@]23C(=O)[C@@H](C=C(CO)[C@@H](O)[C@]12O)[C@H]1[C@@H](C[C@H]3C)C1(C)C,,phosphate buffer 30% acetonitrile,"100 µM, 24 h, pH 7.4, 37 °C",,~73
CCOC(=O)[C@@H]1Cc2c(cc([N+](=O)[O-])cc2[N+](=O)[O-])[C@H](O)[C@]12C(=O)Nc1ccc(Br)cc12,,human liver microsomes,"10 min, 37 °C",,> 90
C[C@@H]1NC(=O)[C@H](CC(N)=O)N2C[C@H](Cc3c[nH]c4ccccc34)NC(=O)[C@H](CSCC2=O)NC(=O)[C@H](CCCNC(=N)N)NC(=O)[C@@H](Cc2ccccc2)NC(=O)[C@H](Cc2c[nH]cn2)NC(=O)[C@@H](NC(=O)[C@@H](N)Cc2ccc(O)cc2)CSSC[C@@H](C(=O)N[C@@H](Cc2ccc(O)cc2)C(N)=O)NC(=O)[C@H](Cc2ccccc2)NC1=O,LC-MS,rat serum,"10 µM, 24 h, 37 °C",,12
CC(C)C[C@H](NC(=O)[C@H](Cc1ccccc1)NC(=O)CNC(=O)C/C=C(\F)[C@@H](N)Cc1ccc(O)cc1)C(=O)O,,mouse plasma,"50 µM, 4 h, 37 °C",,> 90

# A few entries again:
SMILES,test,test system,setting,scale,remaining compound [%]
Cc1cc(O)cc(C)c1C[C@H](N)C(=O)N[C@H](C)C(=O)NCC(=O)N(C)[C@@H](Cc1ccccc1)C(=O)N1CCC[C@H]1C(=O)N[C@@H](CC(C)C)C(=O)N[C@@H](Cc1c[nH]c2ccccc12)C(=O)NCc1cc(C(F)(F)F)cc(C(F)(F)F)c1,,rat plasma,"0 h, 37 °C",,100
NC(=O)c1c(F)ccc(OCc2nc3cc(Cl)cnc3s2)c1F,,human plasma,"10 µM, 24 h, 37 °C",,100 ± 5.2
